Published values of several laboratories.
Parts stem from different laboratories: compare values within a part only.
Chain of UniProt Q8WTQ7 (whole entry, looked up): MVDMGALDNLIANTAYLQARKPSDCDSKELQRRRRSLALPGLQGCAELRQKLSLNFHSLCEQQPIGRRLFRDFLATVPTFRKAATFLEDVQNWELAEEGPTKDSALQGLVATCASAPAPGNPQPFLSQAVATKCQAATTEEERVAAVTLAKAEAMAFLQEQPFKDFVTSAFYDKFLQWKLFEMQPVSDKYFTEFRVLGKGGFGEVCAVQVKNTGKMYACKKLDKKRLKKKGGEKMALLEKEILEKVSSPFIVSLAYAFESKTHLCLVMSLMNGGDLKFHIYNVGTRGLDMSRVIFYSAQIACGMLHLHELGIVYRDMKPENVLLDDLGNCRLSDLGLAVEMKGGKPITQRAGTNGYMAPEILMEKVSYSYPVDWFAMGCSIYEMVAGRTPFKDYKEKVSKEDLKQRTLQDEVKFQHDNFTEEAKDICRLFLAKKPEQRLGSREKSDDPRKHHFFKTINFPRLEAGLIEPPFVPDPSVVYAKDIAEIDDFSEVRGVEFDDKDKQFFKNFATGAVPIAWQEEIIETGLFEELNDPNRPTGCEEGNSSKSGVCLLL
Chain of UniProt O94804 (whole entry, looked up): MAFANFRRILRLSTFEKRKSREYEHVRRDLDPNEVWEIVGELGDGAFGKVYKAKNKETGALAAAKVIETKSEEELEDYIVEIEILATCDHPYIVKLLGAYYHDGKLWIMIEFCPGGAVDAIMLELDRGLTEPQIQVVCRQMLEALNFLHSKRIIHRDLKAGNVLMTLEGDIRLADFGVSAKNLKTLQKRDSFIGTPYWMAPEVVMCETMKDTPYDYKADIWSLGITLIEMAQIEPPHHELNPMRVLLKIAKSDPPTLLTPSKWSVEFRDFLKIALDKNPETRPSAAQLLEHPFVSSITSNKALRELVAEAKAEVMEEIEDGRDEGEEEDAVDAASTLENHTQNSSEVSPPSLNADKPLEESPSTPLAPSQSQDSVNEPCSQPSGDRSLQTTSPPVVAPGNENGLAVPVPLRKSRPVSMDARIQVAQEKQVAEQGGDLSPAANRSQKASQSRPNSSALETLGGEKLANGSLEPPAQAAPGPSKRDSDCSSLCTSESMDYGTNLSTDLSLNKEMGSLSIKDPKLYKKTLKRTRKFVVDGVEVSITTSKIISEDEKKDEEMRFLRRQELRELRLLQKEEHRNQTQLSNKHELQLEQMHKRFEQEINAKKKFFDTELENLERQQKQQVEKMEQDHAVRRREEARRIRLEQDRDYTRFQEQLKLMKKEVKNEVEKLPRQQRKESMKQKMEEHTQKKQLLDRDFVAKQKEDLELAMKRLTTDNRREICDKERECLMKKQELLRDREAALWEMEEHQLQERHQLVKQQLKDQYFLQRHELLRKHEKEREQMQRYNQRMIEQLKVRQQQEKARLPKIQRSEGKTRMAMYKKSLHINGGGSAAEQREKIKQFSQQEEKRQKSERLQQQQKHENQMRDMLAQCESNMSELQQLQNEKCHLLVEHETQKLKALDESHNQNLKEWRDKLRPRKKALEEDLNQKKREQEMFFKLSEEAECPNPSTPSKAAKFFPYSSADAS
Chain of UniProt P46734 (whole entry, looked up): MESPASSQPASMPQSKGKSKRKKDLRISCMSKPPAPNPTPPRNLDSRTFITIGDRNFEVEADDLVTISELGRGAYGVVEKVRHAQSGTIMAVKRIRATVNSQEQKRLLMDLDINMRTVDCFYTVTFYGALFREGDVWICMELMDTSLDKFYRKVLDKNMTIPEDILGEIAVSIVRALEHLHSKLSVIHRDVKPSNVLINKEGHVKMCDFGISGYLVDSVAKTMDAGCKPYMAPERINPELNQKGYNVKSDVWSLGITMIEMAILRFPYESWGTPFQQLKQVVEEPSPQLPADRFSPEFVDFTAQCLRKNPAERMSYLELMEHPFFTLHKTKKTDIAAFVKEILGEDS
Chain of UniProt P49674 (whole entry, looked up): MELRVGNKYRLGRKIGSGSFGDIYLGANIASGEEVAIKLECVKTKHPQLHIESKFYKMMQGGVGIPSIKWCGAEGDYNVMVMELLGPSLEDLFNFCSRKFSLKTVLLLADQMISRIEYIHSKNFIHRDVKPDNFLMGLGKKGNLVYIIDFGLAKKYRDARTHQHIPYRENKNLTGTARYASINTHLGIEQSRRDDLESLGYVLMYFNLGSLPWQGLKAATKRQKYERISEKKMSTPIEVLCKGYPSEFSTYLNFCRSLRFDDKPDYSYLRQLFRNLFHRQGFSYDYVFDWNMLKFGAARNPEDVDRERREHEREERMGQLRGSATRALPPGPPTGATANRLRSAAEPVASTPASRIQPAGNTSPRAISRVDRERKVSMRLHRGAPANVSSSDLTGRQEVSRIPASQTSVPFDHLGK
Chain of UniProt P22607 (whole entry, unmodified, looked up): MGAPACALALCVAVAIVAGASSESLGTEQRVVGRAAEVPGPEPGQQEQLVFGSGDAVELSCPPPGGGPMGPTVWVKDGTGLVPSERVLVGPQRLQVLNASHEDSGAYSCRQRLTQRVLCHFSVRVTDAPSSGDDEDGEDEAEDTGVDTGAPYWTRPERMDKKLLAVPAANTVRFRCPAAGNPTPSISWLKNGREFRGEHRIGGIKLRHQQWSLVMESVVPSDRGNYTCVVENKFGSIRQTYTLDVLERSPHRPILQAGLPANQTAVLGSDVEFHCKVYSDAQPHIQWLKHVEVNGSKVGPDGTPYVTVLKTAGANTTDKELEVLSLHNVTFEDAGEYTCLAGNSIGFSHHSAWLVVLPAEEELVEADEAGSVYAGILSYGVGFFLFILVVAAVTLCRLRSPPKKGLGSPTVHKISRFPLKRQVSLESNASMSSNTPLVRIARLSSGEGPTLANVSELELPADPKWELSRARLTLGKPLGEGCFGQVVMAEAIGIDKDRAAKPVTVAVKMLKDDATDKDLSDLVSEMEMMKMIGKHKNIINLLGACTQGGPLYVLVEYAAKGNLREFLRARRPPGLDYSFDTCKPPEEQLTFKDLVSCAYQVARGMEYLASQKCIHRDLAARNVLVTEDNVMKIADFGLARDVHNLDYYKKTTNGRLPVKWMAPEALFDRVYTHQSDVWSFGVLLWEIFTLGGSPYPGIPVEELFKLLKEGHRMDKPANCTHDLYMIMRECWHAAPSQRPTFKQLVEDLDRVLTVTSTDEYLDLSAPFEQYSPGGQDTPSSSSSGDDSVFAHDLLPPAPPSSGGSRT
Chain of UniProt P35590 (whole entry, looked up): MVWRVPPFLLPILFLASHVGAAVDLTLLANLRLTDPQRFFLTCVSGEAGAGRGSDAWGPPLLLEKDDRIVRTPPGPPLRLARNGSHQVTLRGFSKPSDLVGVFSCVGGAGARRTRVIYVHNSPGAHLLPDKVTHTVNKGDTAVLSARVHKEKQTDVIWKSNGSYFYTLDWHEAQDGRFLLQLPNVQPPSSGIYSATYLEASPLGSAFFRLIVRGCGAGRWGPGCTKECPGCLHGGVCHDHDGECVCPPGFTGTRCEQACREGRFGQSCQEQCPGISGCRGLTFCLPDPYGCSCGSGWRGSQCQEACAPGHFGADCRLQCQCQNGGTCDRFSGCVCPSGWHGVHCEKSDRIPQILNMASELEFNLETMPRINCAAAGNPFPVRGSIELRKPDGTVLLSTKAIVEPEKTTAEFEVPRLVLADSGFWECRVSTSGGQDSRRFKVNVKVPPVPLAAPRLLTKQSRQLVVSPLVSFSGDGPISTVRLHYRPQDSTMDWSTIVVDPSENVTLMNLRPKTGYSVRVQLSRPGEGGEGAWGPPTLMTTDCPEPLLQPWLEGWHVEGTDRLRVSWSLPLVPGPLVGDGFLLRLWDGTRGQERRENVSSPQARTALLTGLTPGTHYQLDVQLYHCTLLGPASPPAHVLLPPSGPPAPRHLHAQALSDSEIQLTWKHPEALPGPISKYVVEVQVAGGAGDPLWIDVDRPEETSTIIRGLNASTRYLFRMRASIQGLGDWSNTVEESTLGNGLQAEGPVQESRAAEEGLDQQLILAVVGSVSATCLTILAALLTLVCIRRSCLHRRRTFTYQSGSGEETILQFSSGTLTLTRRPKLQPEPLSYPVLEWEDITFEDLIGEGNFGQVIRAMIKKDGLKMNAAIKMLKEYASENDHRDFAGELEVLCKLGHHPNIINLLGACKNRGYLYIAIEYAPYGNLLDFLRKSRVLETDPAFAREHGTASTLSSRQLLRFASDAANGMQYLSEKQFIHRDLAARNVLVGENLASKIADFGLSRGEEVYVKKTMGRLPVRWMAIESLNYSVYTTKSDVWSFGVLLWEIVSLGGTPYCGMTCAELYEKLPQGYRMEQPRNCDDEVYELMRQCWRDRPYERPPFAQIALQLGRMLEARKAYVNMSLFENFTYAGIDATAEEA

Sample 1
SMILES: Cc1nc(C2CCN(C(=O)c3ccc(OC(F)(F)F)cc3N)CC2)c2ncc(N3CCN(C)CC3)cc2n1
Read-out: cell-free assay
Technique: competition with immobilised ligand
Tested at: 1 µM
Measurement: remaining binding
PIM3 (Homo sapiens, UniProt Q86V86): 100%
IRAK1 (Homo sapiens, UniProt P51617): 100%
MARK2 (Homo sapiens, UniProt Q7KZI7): 100%
MAP2K3 (Homo sapiens, UniProt P46734): 98%
CDK8 (Homo sapiens, UniProt P49336): 100%
STK25 (Homo sapiens, UniProt O00506): 100%
EGFR (Homo sapiens, UniProt P00533): 86%
MARK3 (Homo sapiens, UniProt P27448): 89%
Tyrosine-protein kinase ABL1, phosphorylated (ABL1, Homo sapiens, UniProt P00519, T315I): 100%
GRK7 (Homo sapiens, UniProt Q8WTQ7): 81%
EPHB4 (Homo sapiens, UniProt P54760): 92%
TIE1 (Homo sapiens, UniProt P35590): 100%
FGFR3 (Homo sapiens, UniProt P22607, G697C): 100%

Sample 2
Target: Eukaryotic initiation factor 4A-I (EIF4A1, Homo sapiens, UniProt P60842, residues 1-406, full length assumed)
Chain of UniProt P60842 (whole entry, looked up): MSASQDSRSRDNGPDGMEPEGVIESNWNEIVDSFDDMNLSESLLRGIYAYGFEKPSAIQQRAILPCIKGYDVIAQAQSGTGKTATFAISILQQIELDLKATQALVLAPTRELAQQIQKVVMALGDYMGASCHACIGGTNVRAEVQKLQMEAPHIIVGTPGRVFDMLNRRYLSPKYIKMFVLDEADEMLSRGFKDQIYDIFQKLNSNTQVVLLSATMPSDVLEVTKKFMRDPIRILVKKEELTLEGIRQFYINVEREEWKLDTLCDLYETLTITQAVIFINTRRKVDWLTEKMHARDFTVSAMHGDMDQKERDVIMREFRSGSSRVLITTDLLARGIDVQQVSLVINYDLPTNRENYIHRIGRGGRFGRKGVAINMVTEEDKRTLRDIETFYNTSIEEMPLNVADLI
Technique: RNA Bind-n-Seq
Molecule type: RNA
Sample: in vitro
Tested at: 90 pmol
Notes: 4-mer, random 30-nt RNA, single round
Added: 3 µM DMDA-PatA, 2 mM ADP, 2 mM phosphate
Reference: input library
Reading: higher = stronger binding
Measurement: 4-mer enrichment
CACU: 0.569 fold
AAAA: 1.18 fold
ACCG: 0.619 fold
UGAU: 1.01 fold
CAAA: 0.955 fold
UUCC: 0.635 fold
UCGG: 0.726 fold
AACA: 0.847 fold

Sample 3
Target: Protein max, full length (MAX, Homo sapiens, UniProt P61244-2, residues 1-151)
Technique: protein-binding microarray
Molecule type: double-stranded DNA, one strand shown
Sample: in vitro
Tested at: not given
Notes: k-mer, scored over probes, only values ≥0.25
Reading: higher = stronger binding
Measurement: E-score
CCATATGC: 0.346
GTGGTCCA: 0.276
CACGCCAC: 0.388
CGTGTACC: 0.363
CAGCACGG: 0.302
CCGTGCGC: 0.296
AGCATGAC: 0.411
ACATGCCC: 0.371

Other studies, line by line
Read-out: enzyme activity
Mode: inhibitor
Tested at: 0.5 µM
COc1cc(Nc2c(C#N)cnc3cc(OCCCN4CCN(C)CC4)c(OC)cc23)c(Cl)cc1Cl
remaining activity (STK10 (Homo sapiens, UniProt O94804); reference: control): 12.6%

O=C1c2ccccc2-c2n[nH]c3cccc1c23
activity vs control (CSNK1E (Homo sapiens, UniProt P49674)): 25.2%

Cc1cncc2cccc(S(=O)(=O)N3CCCN(C(=O)CN)C[C@@H]3C)c12
remaining activity (MAP3K3 (Homo sapiens, UniProt Q99759); reference: control): 99.1%

Repeated from above (sample 3):
CACGCCAC: 0.388
CGTGTACC: 0.363
CAGCACGG: 0.302
CCGTGCGC: 0.296
